Measurements collected from several papers.
Each line is one published result; not all experiments were run side by side. Values joined by “and” are separate records of one study, mostly repeats; a detail may differ. Numbers after ± are the reported error.
PRKACB: cAMP-dependent protein kinase catalytic subunit beta (PRKACB, Homo sapiens, UniProt P22694)
PRKD1: Serine/threonine-protein kinase D1 (PRKD1, Homo sapiens, UniProt Q15139)
Chain of UniProt Q15139 (whole entry, looked up): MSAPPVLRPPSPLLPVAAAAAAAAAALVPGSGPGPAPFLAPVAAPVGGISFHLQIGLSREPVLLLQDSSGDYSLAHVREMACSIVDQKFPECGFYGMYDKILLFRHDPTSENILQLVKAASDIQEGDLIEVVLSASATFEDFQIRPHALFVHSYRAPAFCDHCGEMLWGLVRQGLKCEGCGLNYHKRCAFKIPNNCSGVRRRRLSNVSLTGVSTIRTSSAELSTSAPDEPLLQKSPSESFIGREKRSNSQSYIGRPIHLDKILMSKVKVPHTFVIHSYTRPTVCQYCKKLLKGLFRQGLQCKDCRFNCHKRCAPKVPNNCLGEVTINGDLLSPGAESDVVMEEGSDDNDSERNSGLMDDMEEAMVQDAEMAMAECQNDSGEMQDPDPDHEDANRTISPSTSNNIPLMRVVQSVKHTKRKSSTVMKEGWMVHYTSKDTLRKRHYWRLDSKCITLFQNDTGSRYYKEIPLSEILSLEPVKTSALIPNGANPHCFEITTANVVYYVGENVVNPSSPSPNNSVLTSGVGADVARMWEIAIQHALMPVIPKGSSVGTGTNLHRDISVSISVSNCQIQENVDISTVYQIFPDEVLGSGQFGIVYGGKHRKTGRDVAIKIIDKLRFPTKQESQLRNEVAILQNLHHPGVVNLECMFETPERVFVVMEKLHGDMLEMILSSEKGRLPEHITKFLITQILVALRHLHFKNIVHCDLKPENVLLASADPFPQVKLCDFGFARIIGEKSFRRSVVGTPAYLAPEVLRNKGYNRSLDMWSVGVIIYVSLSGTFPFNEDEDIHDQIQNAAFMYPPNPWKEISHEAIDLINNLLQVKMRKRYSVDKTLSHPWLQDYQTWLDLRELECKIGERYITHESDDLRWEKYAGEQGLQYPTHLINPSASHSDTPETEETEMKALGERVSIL
CDK2 with cyclin A2: Cyclin-dependent kinase 2, with cyclin A2 (CDK2, Homo sapiens, UniProt P24941)
DCLK2: Serine/threonine-protein kinase DCLK2 (DCLK2, Homo sapiens, UniProt Q8N568)
Chain of UniProt Q8N568 (whole entry, looked up): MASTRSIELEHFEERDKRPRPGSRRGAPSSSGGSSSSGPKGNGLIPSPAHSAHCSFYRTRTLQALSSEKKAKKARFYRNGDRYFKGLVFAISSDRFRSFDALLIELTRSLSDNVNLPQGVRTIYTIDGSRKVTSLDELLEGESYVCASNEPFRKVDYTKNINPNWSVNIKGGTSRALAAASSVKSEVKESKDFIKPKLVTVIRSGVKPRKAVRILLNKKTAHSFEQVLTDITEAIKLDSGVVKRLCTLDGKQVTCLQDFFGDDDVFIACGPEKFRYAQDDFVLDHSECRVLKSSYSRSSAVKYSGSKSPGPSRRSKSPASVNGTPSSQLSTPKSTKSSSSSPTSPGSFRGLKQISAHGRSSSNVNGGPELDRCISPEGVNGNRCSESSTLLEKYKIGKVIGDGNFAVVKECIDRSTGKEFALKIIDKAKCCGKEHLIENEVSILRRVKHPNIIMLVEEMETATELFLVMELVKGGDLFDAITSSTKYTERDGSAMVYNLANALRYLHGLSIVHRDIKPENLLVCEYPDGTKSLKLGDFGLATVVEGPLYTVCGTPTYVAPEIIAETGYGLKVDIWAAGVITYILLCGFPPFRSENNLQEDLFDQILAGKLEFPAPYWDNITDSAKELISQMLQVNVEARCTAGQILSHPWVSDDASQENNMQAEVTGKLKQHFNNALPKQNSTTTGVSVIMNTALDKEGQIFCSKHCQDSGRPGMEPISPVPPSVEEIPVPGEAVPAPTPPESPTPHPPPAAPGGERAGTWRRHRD
SRMS: Tyrosine-protein kinase Srms (SRMS, Homo sapiens, UniProt Q9H3Y6)
Chain of UniProt Q9H3Y6 (whole entry, looked up): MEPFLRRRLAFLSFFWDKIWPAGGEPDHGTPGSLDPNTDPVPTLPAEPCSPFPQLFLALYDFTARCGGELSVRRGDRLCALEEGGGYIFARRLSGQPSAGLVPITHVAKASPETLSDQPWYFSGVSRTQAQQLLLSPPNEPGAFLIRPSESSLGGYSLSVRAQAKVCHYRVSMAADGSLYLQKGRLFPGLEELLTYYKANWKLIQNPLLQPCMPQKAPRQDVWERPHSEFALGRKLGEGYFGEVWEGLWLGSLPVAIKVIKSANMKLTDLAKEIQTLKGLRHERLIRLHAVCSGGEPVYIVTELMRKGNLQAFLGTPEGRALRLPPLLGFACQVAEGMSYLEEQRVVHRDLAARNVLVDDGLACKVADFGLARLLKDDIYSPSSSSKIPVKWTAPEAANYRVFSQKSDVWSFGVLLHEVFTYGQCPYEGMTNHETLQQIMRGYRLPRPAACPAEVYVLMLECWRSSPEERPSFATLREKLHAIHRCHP
CDK2: Cyclin-dependent kinase 2 (CDK2, Homo sapiens, UniProt P24941)
Chain of UniProt Q92626 (whole entry, looked up): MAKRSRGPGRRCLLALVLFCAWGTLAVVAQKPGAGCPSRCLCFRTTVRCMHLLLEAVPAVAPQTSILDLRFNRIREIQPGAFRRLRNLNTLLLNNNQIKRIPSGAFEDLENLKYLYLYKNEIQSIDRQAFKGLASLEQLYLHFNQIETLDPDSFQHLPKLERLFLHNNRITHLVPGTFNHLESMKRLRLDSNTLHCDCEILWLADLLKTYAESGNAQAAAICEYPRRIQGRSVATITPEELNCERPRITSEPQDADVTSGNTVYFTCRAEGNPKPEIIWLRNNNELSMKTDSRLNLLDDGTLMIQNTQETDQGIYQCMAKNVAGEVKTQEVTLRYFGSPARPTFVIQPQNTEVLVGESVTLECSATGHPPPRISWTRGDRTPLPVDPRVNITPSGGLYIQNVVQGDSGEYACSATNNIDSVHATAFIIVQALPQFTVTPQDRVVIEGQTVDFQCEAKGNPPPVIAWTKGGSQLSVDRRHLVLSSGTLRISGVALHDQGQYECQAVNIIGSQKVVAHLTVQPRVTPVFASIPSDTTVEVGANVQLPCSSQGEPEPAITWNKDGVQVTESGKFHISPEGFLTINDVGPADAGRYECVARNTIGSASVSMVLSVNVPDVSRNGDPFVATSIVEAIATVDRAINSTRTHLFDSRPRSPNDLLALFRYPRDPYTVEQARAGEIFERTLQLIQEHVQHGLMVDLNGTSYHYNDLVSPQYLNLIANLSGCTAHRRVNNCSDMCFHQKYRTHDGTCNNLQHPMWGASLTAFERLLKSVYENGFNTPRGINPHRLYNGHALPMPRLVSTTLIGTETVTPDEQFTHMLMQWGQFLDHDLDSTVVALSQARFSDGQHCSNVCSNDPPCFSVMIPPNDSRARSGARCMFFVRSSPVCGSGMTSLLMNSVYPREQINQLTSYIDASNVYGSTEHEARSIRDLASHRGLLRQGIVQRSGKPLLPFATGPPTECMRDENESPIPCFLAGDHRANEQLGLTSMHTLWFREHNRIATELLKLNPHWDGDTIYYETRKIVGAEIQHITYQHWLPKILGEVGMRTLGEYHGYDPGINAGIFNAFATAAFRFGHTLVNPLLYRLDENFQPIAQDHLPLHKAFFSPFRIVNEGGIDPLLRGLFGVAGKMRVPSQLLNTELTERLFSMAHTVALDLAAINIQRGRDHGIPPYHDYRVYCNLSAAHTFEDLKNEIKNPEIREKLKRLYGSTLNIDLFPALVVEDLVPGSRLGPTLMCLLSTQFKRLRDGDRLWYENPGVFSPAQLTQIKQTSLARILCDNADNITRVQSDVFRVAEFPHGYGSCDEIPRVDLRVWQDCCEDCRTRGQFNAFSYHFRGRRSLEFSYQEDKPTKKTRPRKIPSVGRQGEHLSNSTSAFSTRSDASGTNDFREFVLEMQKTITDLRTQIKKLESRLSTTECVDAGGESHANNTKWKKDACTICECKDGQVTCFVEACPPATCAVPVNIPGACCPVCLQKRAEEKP
Chain of UniProt P45984 (whole entry, looked up): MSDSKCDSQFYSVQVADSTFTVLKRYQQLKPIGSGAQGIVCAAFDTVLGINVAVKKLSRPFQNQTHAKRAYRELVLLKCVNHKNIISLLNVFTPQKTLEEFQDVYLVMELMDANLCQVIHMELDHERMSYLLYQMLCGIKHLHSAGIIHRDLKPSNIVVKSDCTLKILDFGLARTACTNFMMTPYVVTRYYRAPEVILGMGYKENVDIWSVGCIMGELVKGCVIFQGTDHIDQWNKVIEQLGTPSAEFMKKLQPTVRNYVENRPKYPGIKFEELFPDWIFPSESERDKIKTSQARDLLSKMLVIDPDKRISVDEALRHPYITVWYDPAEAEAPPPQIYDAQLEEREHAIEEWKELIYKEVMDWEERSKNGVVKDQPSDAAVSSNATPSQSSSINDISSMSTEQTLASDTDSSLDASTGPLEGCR
Chain of UniProt P05771 (whole entry, looked up): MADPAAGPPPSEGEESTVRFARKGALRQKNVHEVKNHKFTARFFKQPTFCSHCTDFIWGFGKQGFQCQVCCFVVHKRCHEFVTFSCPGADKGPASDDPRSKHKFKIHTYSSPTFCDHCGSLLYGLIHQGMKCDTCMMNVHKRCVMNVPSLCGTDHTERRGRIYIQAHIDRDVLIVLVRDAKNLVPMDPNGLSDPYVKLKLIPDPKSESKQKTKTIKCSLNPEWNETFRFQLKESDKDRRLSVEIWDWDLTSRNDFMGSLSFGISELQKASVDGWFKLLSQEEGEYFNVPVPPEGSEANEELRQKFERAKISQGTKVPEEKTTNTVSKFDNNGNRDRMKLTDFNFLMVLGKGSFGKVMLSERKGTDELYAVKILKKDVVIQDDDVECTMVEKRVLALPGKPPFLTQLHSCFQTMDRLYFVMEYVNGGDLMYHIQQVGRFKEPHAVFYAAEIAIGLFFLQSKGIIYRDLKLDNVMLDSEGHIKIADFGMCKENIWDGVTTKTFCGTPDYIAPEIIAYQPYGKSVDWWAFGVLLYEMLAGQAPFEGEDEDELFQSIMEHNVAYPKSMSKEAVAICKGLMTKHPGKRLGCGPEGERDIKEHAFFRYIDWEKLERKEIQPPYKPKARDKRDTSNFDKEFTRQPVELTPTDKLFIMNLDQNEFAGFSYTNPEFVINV
Chain of UniProt Q8TDX7 (whole entry, looked up): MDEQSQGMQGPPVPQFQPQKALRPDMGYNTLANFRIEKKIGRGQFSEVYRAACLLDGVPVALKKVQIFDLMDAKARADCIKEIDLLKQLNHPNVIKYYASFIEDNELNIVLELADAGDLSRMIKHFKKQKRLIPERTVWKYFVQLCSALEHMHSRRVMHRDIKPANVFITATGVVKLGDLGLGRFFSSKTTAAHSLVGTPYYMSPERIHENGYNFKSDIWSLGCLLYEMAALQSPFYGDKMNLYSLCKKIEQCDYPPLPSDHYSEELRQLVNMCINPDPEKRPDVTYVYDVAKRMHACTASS

SMILES = O=C1COc2ccc(-c3ccc(F)cc3F)cc2N1Cc1noc(C2CCC2)n1; target = UVRAG, with Beclin 1 (Homo sapiens, UniProt Q9P2Y5); test = UVRAG-Beclin1 interaction, NanoBRET; system = HEK293T; conditions = 100 µM, 24 h; how to read = baseline: DMSO; measurement = remaining activity; value = 100 ± 3.8%
SMILES = CC#CC(=O)N1CCC[C@H]1c1nc(-c2ccc(C(=O)Nc3ccccn3)cc2)c2c(N)nccn12; target = PRKACB; test = kinase activity, inhibitor, HotSpot radiometric; conditions = 100 nM, with: ATP 10 µM; measurement = remaining activity; value = 101.7 ± 1%
SMILES = COc1cc(Nc2ncc3c(n2)-c2ccc(Cl)cc2C(c2c(F)cccc2OC)=NC3)ccc1C(=O)O; target = PRKACA; test = kinase activity; conditions = 1 µM; measurement = remaining activity; value = 59%
SMILES = CNc1ncc2c(/C=C/C(=O)N3CCC(OC)CC3)nn(Cc3cccc(C(F)(F)F)c3)c2n1; target = PRKD1; test = kinase activity, inhibitor; conditions = 1 µM; how to read = baseline: untreated control; measurement = remaining activity; value = 90%
SMILES = CC(=O)Nc1c(N)nc(SCC(=O)N/N=C/c2ccc([N+](=O)[O-])cc2)[nH]c1=O; target = CDK2 with cyclin A2; test = kinase activity; conditions = 500 nM; measurement = remaining activity; value = 48.5%
SMILES = O=C1NC(=O)/C(=C/c2ccc(-c3ccc(F)cc3O)o2)S1; target = PRKD1; test = enzyme activity; conditions = 10 µM; measurement = remaining activity; value = 55%
SMILES = CC(C)(C)c1nc(-c2cccc(NS(=O)(=O)c3c(F)cccc3F)c2F)c(-c2ccnc(N)n2)s1; target = Protein kinase C beta type, isoform beta-II (PRKCB, Homo sapiens, UniProt P05771); test = kinase activity, radiometric 33PanQinase; conditions = 1 µM; how to read = baseline: DMSO; measurement = remaining activity; value = 84%
SMILES = Cc1cc(Nc2cc(N3CCN(C)CC3)nc(Sc3ccc(NC(=O)C4CC4)cc3)n2)[nH]n1; target = Serine/threonine-protein kinase Nek7 (NEK7, Homo sapiens, UniProt Q8TDX7); test = kinase activity, KinaseProfiler; conditions = 0.03 µM, species human; how to read = baseline: control; measurement = remaining activity; value = 107%
SMILES = COc1cc(N2CCN(C)CC2)ccc1Nc1nc(N)n(C(=O)NCc2ccccc2S(=O)(=O)C(C)C)n1; target = DCLK2; test = enzyme activity; conditions = 10 µM; how to read = baseline: control; measurement = remaining activity; value = 17%
SMILES = CC(=O)Nc1c(N)nc(SCC(=O)NN)[nH]c1=O; target = CDK2 with cyclin A2; test = kinase activity; conditions = 500 nM; measurement = remaining activity; value = 46.6%
SMILES = COc1cc(N2CCN(C)CC2)ccc1Nc1nc(N)n(C(=S)NCc2c(Cl)cccc2Cl)n1; target = Citron Rho-interacting kinase (CIT, Homo sapiens, UniProt O14578); test = enzyme activity; conditions = 10 µM; how to read = baseline: control; measurement = remaining activity; value = 5.4%
SMILES = C1=C/COCc2cc(ccc2OCCN2CCCC2)Nc2nccc(n2)-c2cccc(c2)COC/1; target = Epidermal growth factor receptor (EGFR, Homo sapiens, UniProt P00533, T790M); conditions = concentration not given; how to read = baseline: untreated control; measurement = remaining activity; value = 94%
SMILES = C=CC(=O)N1CCC[C@@H](n2nc(-c3ccc(Oc4ccccc4)cc3)c3c(N)ncnc32)C1; target = Ephrin type-A receptor 3 (EPHA3, Homo sapiens, UniProt P29320); conditions = 0.1 µM; measurement = remaining activity; value = 89.1%
SMILES = CNC(=O)c1cc(Oc2ccc(NC(=O)Nc3ccc(Cl)c(C(F)(F)F)c3)cc2)ccn1; target = CDK2 with cyclin A2; test = kinase activity; conditions = 1000 nM; measurement = remaining activity; value = 18.6%
SMILES = C=CC(=O)N1CCC[C@@H](n2nc(-c3ccc(Oc4ccccc4)cc3)c3c(N)ncnc32)C1; target = SRMS; test = kinase activity, inhibitor, HotSpot radiometric; conditions = 100 nM, with: ATP 10 µM; measurement = remaining activity; value = 28.9 ± 0.2%
SMILES = COc1cc(F)ccc1-c1ncnc(Nc2cccc(C[S@](C)(=N)=O)c2)n1; target = DCLK2; test = kinase activity; conditions = 10 µM, with: 10 µM ATP; measurement = remaining activity; value = 82%
SMILES = CCc1nnc(NS(=O)(=O)c2ccc(NC(=O)c3ccc(F)cc3)cc2)s1; target = CDK2; test = binding; measurement = Kd; value = > 100 µM
SMILES = O=C(O)c1ccc(Nc2ncc3c(n2)-c2ccc(Cl)cc2C(c2c(F)cccc2F)=NC3)cc1; target = human CSK(h); test = kinase activity; conditions = 1 µM; measurement = remaining activity; value = 105%
SMILES = NC/C(=C\F)COc1cccc(Cn2c(=S)[nH]c(=O)c3[nH]cnc32)c1; target = Peroxidasin homolog (PXDN, Homo sapiens, UniProt Q92626); test = enzyme activity, inhibitor, Amplex UltraRed; conditions = 1.25 µM; how to read = baseline: control; measurement = remaining activity; value = 96.1% and 94.9%
SMILES = COc1cc(N2CCN(C)CC2)ccc1Nc1nc(N)n(C(=O)NCc2c(Cl)cccc2Cl)n1; target = Serine/threonine-protein kinase TAO2 (TAOK2, Homo sapiens, UniProt Q9UL54); test = enzyme activity; conditions = 10 µM; how to read = baseline: control; measurement = remaining activity; value = 26%
SMILES = COc1ccc(F)cc1C(=O)NCc1ccc(-c2nn([C@@H](C)C(F)(F)F)c(N)c2C(N)=O)cc1; target = SRMS; test = kinase activity, inhibitor, HotSpot radiometric; conditions = 1000 nM, with: ATP at Km; measurement = remaining activity; value = 102 ± 2.6%
SMILES = O=C(NC1CCC1)c1ccc2nc(-c3cccc(NS(=O)(=O)NCCN4CCCCC4)c3)cn2c1; target = PRKACB; test = enzyme activity; conditions = 10 µM; measurement = remaining activity; value = 100%
SMILES = C=CC(=O)N1CCC([C@@H]2CCNc3c(C(N)=O)c(-c4ccc(Oc5ccccc5)cc4)nn32)CC1; target = SRMS; test = kinase activity, inhibitor, HotSpot radiometric; conditions = 100 nM, with: ATP 10 µM; measurement = remaining activity; value = 94.9%
SMILES = CN(C)CC#Cc1ccc2[nH]c3c(c2c1)-c1nc(N)ncc1CCC3; target = Testis-specific serine/threonine-protein kinase 2 (TSSK2, Homo sapiens, UniProt Q96PF2); test = kinase activity, inhibitor, radiometric; conditions = 1 µM, with: ATP at Km; measurement = remaining activity; value = 77%
SMILES = COc1cc(-c2cncc3c2CN(C)Cc2cc(N4CCNCC4)ccc2-3)cc(OC)c1OC; target = PRKD1; test = kinase activity; conditions = 1 µM, human enzyme, with: ATP 10 µM; how to read = baseline: DMSO control; measurement = remaining activity; value = 107%
SMILES = COC(=O)c1ccccc1Oc1nc(NC(C)C)nc(NC(C)C)n1; target = CDK2; test = binding; measurement = Kd; value = > 100 µM
SMILES = Cc1cc(NC(=O)c2cccc(NC(=O)/C=C/CN(C)C)c2)ccc1Nc1nccc(-c2cccnc2)n1; target = Mitogen-activated protein kinase 9 (MAPK9, Homo sapiens, UniProt P45984); test = enzyme activity, inhibitor; conditions = 4.938 µM, unit not given; how to read = baseline: vehicle; measurement = remaining activity; value = 0.037

Repeated from above:
SMILES = COC(=O)c1ccccc1Oc1nc(NC(C)C)nc(NC(C)C)n1; target = CDK2; test = binding; measurement = Kd; value = > 100 µM
SMILES = CC(=O)Nc1c(N)nc(SCC(=O)NN)[nH]c1=O; target = CDK2 with cyclin A2; test = kinase activity; conditions = 500 nM; measurement = remaining activity; value = 46.6%
SMILES = COc1cc(-c2cncc3c2CN(C)Cc2cc(N4CCNCC4)ccc2-3)cc(OC)c1OC; target = PRKD1; test = kinase activity; conditions = 1 µM, human enzyme, with: ATP 10 µM; how to read = baseline: DMSO control; measurement = remaining activity; value = 107%
